# Assay results collected from several papers.
# Numbered parts are unrelated; each lists some results of a single study. “And” joins repeats or separate records; there may be more than shown.
# Chain of UniProt P07949 (whole entry, looked up): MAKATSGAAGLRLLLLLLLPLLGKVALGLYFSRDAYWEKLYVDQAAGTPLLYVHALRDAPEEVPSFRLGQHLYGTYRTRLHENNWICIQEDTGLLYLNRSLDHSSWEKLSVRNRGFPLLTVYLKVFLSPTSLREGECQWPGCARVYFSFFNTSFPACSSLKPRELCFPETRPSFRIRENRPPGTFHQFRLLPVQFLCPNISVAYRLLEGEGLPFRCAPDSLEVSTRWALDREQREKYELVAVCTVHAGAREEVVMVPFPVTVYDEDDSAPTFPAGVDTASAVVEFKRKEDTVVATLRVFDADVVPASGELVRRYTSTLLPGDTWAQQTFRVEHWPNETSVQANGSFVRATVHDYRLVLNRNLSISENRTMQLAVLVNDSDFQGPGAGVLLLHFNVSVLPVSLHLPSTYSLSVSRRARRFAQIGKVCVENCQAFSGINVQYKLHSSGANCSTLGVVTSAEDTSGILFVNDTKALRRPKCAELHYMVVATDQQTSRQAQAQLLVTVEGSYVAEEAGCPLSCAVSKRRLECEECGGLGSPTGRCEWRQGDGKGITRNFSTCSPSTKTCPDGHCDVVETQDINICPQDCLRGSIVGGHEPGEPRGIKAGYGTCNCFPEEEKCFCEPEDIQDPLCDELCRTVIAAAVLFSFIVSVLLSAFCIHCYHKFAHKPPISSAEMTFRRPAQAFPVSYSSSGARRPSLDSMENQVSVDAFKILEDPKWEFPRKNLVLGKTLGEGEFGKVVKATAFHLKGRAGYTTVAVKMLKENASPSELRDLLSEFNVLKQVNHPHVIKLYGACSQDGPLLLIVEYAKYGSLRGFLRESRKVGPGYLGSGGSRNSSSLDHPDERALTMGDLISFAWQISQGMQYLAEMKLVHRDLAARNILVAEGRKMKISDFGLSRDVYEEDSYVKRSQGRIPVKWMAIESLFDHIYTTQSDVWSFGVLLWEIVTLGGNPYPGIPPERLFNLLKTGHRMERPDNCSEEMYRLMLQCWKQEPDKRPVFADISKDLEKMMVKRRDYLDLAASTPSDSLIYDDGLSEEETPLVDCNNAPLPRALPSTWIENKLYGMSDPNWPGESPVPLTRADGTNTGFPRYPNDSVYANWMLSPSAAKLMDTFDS
# Chain of UniProt P52333 (whole entry, looked up): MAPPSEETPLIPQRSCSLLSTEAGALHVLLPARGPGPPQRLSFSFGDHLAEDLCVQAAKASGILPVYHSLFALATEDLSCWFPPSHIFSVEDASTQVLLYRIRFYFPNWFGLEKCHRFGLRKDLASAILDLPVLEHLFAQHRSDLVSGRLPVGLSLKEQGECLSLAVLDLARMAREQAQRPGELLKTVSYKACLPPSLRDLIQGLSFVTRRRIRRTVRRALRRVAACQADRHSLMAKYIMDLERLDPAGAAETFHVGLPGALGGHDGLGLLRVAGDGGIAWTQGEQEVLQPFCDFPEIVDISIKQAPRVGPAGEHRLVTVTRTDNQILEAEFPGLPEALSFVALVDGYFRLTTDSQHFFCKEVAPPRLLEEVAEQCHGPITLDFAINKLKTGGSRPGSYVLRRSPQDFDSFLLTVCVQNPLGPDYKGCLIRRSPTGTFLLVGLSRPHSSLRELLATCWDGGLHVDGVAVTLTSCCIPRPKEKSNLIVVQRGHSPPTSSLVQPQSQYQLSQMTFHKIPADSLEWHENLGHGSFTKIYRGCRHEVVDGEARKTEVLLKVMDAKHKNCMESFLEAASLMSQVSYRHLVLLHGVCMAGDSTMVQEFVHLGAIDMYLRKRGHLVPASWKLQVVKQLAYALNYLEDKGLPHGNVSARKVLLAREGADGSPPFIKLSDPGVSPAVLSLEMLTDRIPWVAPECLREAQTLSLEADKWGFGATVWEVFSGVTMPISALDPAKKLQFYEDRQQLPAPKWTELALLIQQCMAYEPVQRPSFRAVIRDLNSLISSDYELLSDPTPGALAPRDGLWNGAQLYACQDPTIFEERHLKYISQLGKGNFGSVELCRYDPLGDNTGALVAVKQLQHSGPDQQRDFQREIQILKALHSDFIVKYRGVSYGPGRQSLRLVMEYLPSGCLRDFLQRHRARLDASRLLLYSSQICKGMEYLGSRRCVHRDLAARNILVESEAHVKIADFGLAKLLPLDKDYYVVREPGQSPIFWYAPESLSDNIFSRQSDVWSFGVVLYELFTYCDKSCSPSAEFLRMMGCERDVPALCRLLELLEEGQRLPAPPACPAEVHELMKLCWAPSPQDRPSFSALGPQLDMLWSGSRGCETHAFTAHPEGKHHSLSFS
# Chain of UniProt Q8TD19 (whole entry, looked up): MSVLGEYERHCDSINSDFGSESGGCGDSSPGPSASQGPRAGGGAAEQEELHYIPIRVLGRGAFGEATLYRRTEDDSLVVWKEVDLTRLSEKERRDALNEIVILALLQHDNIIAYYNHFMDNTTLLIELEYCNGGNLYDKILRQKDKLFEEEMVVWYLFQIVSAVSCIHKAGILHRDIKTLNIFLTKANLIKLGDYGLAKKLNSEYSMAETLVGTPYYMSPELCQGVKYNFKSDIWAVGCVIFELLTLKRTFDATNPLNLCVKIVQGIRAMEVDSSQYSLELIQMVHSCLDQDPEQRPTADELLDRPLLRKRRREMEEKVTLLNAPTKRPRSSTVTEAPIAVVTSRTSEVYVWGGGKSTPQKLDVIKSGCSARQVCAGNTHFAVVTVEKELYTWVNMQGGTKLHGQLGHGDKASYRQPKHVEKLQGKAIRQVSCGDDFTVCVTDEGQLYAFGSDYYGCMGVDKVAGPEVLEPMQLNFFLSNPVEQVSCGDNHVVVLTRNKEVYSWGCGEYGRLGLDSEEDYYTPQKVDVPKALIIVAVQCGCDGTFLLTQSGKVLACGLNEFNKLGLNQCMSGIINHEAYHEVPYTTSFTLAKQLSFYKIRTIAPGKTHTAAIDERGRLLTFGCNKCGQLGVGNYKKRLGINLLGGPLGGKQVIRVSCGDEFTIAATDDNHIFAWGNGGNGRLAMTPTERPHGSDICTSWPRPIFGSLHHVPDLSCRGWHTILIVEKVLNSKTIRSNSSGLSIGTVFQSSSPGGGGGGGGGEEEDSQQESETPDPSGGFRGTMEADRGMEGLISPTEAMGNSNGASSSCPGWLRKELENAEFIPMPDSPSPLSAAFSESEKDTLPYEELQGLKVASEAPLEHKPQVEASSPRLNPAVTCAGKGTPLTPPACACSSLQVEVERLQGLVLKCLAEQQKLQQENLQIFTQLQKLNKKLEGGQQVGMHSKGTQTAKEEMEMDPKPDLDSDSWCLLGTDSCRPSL
# Chain of UniProt Q09013 (whole entry, looked up): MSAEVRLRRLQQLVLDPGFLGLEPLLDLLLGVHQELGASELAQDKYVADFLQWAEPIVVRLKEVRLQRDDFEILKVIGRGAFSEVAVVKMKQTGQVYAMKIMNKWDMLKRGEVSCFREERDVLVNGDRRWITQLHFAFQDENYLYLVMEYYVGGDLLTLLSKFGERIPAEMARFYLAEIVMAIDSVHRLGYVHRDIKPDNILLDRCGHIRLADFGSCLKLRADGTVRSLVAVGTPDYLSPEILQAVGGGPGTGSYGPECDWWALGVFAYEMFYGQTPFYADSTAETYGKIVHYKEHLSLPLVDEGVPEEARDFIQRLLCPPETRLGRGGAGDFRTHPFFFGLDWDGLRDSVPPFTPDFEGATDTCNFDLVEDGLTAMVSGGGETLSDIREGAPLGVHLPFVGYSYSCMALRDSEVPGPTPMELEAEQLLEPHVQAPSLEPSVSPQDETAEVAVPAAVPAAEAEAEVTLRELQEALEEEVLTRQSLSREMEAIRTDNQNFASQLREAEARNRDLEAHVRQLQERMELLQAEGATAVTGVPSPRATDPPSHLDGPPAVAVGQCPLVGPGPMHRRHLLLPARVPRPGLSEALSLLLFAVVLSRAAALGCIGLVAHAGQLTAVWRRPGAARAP
# Chain of UniProt Q16288 (whole entry, looked up): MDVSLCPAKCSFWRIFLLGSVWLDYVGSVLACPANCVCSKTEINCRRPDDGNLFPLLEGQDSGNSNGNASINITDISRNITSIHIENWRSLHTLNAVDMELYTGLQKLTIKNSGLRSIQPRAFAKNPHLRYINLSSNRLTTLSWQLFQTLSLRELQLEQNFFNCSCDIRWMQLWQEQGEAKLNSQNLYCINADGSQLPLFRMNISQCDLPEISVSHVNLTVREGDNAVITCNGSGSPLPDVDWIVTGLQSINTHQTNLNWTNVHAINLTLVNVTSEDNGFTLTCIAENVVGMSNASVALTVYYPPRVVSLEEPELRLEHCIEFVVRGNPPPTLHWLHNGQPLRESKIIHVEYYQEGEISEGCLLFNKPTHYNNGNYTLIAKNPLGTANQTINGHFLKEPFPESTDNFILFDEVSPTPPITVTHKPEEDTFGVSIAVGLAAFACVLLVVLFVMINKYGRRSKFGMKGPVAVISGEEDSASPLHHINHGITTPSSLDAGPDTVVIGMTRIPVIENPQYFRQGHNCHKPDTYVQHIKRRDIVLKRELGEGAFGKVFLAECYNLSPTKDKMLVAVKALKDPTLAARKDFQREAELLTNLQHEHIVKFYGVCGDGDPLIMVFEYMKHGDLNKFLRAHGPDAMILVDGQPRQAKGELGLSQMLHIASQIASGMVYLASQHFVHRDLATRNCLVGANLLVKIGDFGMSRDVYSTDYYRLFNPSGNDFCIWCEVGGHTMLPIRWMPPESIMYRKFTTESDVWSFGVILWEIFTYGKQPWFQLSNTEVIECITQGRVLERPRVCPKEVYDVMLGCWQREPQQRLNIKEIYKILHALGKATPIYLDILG
# Chain of UniProt P19784 (whole entry, looked up): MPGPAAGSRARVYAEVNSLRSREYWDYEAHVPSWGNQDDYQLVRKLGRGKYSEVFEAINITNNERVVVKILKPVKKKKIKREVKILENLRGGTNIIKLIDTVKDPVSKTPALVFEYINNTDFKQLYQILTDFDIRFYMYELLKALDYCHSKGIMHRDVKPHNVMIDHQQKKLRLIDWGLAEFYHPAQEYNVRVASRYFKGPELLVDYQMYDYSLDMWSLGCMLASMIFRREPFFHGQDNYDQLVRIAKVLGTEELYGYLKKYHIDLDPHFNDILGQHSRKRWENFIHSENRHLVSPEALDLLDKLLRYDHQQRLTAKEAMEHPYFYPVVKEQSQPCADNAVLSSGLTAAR

# Set 1
# Structure (SMILES): Cn1cc(/C=C2\C(=O)Nc3ccc(S(N)(=O)=O)cc32)c2ccccc21
# Observed: enzyme activity
# Action: inhibitor
# Tested at: 0.5 µM
# Relative to: control
target,remaining activity [%]
"CSNK2A2 (Homo sapiens, UniProt P19784)",66
"HIPK3 (Homo sapiens, UniProt Q9H422)",105
"RET (Homo sapiens, UniProt P07949)",1.93
"PKN2 (Homo sapiens, UniProt Q16513)",81.8
"PTK2B (Homo sapiens, UniProt Q14289)",43.1
"EGFR (Homo sapiens, UniProt P00533)",77.5
"MAP3K8 (Homo sapiens, UniProt P41279)",96.8
"ROCK2 (Homo sapiens, UniProt O75116)",41
"CAMK1D (Homo sapiens, UniProt Q8IU85)",69.6
"Aurora kinase A (AURKA, Homo sapiens, UniProt O14965)",20
"BRSK1 (Homo sapiens, UniProt Q8TDC3)",47.8
"GRK5 (Homo sapiens, UniProt P34947)",86.3
"NEK9 (Homo sapiens, UniProt Q8TD19)",67.3
"DMPK (Homo sapiens, UniProt Q09013)",106
"DYRK4 (Homo sapiens, UniProt Q9NR20)",73.7
"ROS1 (Homo sapiens, UniProt P08922)",82.2
"MAP3K2 (Homo sapiens, UniProt Q9Y2U5)",92.1
"CDK7 (Homo sapiens, UniProt P50613)",73.7
"Cyclin-dependent kinase 2, with cyclin A (CDK2, Homo sapiens, UniProt P24941)",66.2
"NTRK3 (Homo sapiens, UniProt Q16288)",1.18
"PRKD1 (Homo sapiens, UniProt Q15139)",80
"MAPK10 (Homo sapiens, UniProt P53779)",93.1
"SLK (Homo sapiens, UniProt Q9H2G2)",28.6
"CAMK1G (Homo sapiens, UniProt Q96NX5)",89.2

# Set 2
# SMILES: CCOc1ccc(Nc2c3c(nc4ccccc24)CCC3)cc1
# Organism: Leishmania donovani
# Strain: DD8
# Medium: promastigotes
conditions,promastigote number
"16.66 µM, 72 h",1570 and 1250
"3.33 µM, 48 h",2.25e+06 and 2.22e+06
"3.33 µM, 72 h",5.66e+06 and 5.65e+06
"33.33 µM, 72 h",1570 and 1260

# Set 3
# Structure (SMILES): CC(C)n1cnc(-c2ccc(F)cc2)c1-c1ncc(C(=O)Nc2ccc(N3CCN(C)CC3)cc2)[nH]1
assay,system,conditions,patients with productive cough [%]
phase 2a trial,idiopathic pulmonary fibrosis patients,"all arms, grade 1 emergent event",0
phase 2a trial,idiopathic pulmonary fibrosis patients,"30 mg once daily, grade 5 emergent event",0
phase 2a trial,idiopathic pulmonary fibrosis patients,"30 mg once daily, grade 2 emergent event",0
phase 2a trial,idiopathic pulmonary fibrosis patients,"60 mg once daily, grade 3 emergent event",0
phase 2a trial,idiopathic pulmonary fibrosis patients,"60 mg once daily, grade 4 emergent event",0
phase 2a trial,idiopathic pulmonary fibrosis patients,"30 mg once daily, grade 1 emergent event",0
,"human, idiopathic pulmonary fibrosis","60 mg once daily, trial, treatment-emergent",0
phase 2a trial,idiopathic pulmonary fibrosis patients,"all arms, grade 4 emergent event",0

# Set 4
# SMILES: CN(C(=O)c1ccn2ncc(-c3ccc(C(N)=O)cc3)c2c1)c1ccc(C#N)cn1
# Organism: Cryptosporidium parvum
# Method: time-kill
# Cell line: HCT-8
# Strain: nanoluciferase-expressing
# Relative to: DMSO control
conditions,luminescence remaining
"0.00305 µM, 8 h",115% and 105%
"0.02743 µM, 48 h",86.7% and 87.3%
"0.02743 µM, 24 h",82% and 81.6%
"0.00102 µM, 0 h",103% and 91.2% and 91.4% and 97.4% and 90.1% and 98% and 90.3% and 99.4%
"20 µM, 4 h",114% and 111%

# Set 5
# Cell line: mouse MPNST tumor cells
# Method: high-content nuclear imaging
# Measured: cell number
# Tested at: 10 µM
# Time: 12 h
# Notes: mean of 2 replicates
# Relative to: plate mean
# Reading: higher = more cells
Structure (SMILES),nuclei count [z-score]
Cc1c(N(C)CS(=O)(=O)O)c(=O)n(-c2ccccc2)n1C,1.32
CN(C)CCOC(c1ccccc1)c1ccccc1,2.28
CC(=O)N(CC(O)CN(C(C)=O)c1c(I)c(C(=O)NCC(O)CO)c(I)c(C(=O)NCC(O)CO)c1I)c1c(I)c(C(=O)NCC(O)CO)c(I)c(C(=O)NCC(O)CO)c1I (stereo not shown),-0.762
COc1ccc(C2CNC(=O)C2)cc1OC1CCCC1 (stereo not shown),0.779
O=C(CCNNC(=O)c1ccncc1)NCc1ccccc1,1.05
CN(Cc1ccccc1)C(=O)[C@H](Cc1ccc2ccccc2c1)NC(=O)[C@@H]1CCCN1C(=O)Nc1ccccc1[N+](=O)[O-],3.47
O=C1NCCN1c1ncc([N+](=O)[O-])s1,2.17

# Mixed results
SMILES,target,assay,conditions,quantity,result
C[C@@H]1CN(c2cc(-c3n[nH]c4ccc(OC5(C)CC5)cc34)ncn2)C[C@H](C)O1,"Tyrosine-protein kinase JAK3 (JAK3, Homo sapiens, UniProt P52333)","enzyme activity, inhibitor",1 µM,remaining activity,0%

# A few entries again (set 1):
target,remaining activity [%]
"PKN2 (Homo sapiens, UniProt Q16513)",81.8
"PTK2B (Homo sapiens, UniProt Q14289)",43.1
"EGFR (Homo sapiens, UniProt P00533)",77.5
